Measured values gathered from unrelated publications.
Numbered parts are unrelated; each lists some results of a single study. Positions count from the first letter of the parent shown.

Series 1 — target: CCNB2, cyclin fold, Cln2 fusion (human); method: yeast growth competition, sequencing; medium: yeast; notes: weak parent motif; reference: not given; direction: higher = stronger binding
Starting sequence: E2F1 docking peptide (human); PPVKRRLDLETDH; partner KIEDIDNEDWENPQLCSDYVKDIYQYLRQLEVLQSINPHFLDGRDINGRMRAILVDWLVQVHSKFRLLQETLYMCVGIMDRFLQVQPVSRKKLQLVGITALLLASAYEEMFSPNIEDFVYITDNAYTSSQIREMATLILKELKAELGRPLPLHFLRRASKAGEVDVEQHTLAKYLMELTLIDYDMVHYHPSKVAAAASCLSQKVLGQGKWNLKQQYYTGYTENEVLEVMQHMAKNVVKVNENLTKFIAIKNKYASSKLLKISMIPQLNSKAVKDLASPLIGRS
Variant	normalised enrichment score
PPVKRRNDLETDH [L7N]	-0.0108
PPYKRRLDLETDH [V3Y]	0.242
PPVKRSLDLETDH [R6S]	-0.415
PPVKRRLDLCTDH [E10C]	0.6
PPVKRRLDLETSH [D12S]	0.587
PPVKRYLDLETDH [R6Y]	0.199
RPVKRRLDLETDH [P1R]	-0.0405
PPVKRRLMLETDH [D8M]	0.418
PPVKRRLDLLTDH [E10L]	0.788
PLVKRRLDLETDH [P2L]	0.327
PPVKRRLDLETTH [D12T]	0.0828
PPTKRRLDLETDH [V3T]	0.14
PPKKRRLDLETDH [V3K]	0.547
PPVKRRLDLETDD [H13D]	0.814
PPVKRRLDLETNH [D12N]	-0.402
SPVKRRLDLETDH [P1S]	0.0665
PPMKRRLDLETDH [V3M]	0.284
PPVKRRLDLETDY [H13Y]	0.808
PPLKRRLDLETDH [V3L]	-0.63
PGVKRRLDLETDH [P2G]	0.087
PPVKRRRDLETDH [L7R]	-0.102
PPVKRRLDLETDW [H13W]	0.45
PPVKRALDLETDH [R6A]	-0.0812
PPVKRRLDLYTDH [E10Y]	0.187
HPVKRRLDLETDH [P1H]	0.65

Series 2 — method: RNA Bind-n-Seq; form: RNA; medium: in vitro; tested at: 100 nM; notes: RNA with constant flanks, ends assumed; reference: input RNA pool; direction: higher = stronger binding
Target: RING finger protein unkempt homolog, zinc fingers 1-6, SBP tag (UNK, Homo sapiens, UniProt Q9C0B0, residues 30-357)
UniProt Q9C0B0, sequence (30-357, looked up): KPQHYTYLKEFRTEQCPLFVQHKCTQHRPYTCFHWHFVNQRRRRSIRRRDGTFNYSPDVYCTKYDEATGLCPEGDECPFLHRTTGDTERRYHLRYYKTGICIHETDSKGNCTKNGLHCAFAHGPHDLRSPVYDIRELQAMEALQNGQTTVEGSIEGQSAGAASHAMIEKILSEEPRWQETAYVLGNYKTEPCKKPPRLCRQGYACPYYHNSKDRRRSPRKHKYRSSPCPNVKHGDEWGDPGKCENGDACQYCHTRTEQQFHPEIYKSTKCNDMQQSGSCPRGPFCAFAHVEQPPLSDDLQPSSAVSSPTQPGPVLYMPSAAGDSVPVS
All sequences stand within: GGGAGUUCUACAGUCCGACGAUC … CAACAGAGGAUUGAGCAUCA
Sequence	bound/input enrichment
CAGGGUGGGACCCGGGACCCGCGGCUCAGUGGCCCGCCCGCCACGUCAGCCAAGCCACUUCCGGUCCAUUUUUUAAUUUUAACAGUGCUCUUCCAUCUUGUGCAUAAGCCUGAGAUUUGG	0.96 ratio
AUCCCGUCCGGGGUAACCAUUAAUUUAUUUUAUAAAGAAAGGAAAUGCUGAAAGUCGUAUCCGUACUGAGUUCCGUUGGAGAAUUCCGAUAAGUAAGUAUCUUUCCGGUAAUUCUAAAAU	0.408 ratio
CUUAAUCCGAGGGCAAUAUAUGUUUCAUAAAGAAGAGUCUUUAUAAUUUUGUUUGUCAGACCGUAUUUUGGAAUUUGUAUAAUAAGGAUGUUCCGAAGCCAUAUAAGUGGCUUUUUUUAA	0.213 ratio
CCUACAAUAAUGAAAACCUACAGGAAUUUUUUUAUUUUUCAUUUUCCCCUCCGGCAUAUUCCGUAUUUUUCCCCCAGGCAGAUCAUUCUGAGUGUGCGAGUGUGUGUGCACAUGUUACAA	0.669 ratio
AAACCCCGAUUUCCGAUGUGAUAUUCCGGCUUUCAUUCCAGUUUGUUUUGUUUUUUUGUUCCGAUACCAAUCUUUUAAAUUCUUGCAUUUCCGUAAGAAAGCUAUCUUUUUAUGGAUGUU	0.588 ratio

Series 3 — method: aptamer microarray, sandwich; form: DNA with 2'F-ANA; medium: in vitro; tested at: 200 nM; together with: Cy3 exosite-II aptamer, 400 nM; direction: higher = stronger binding; sequence: GGTTGGTGTGGTTGG
Target: Prothrombin, mature alpha-thrombin (F2, Homo sapiens, UniProt P00734)
Notes: whole 15-mer aptamer, many near background
Modification	mean fluorescence intensity [a.u.]
2'F-ANA at 1 2 5 6 8 10 11 13 15	54.8
2'F-ANA at 2 6 7 10 11 12	146
2'F-ANA at 1 4 5 6 9 11 12 14 15	47.1
2'F-ANA at 1 3 7 10 11 12 13 14	61.4
2'F-ANA at 2 8 9 10 12	191
2'F-ANA at 2 5 8 9 14	52.9
2'F-ANA at 2 6 7 9 15	335
2'F-ANA at 1 3 5 6 7 9 10 11 12 15	64.3
2'F-ANA at 1 2 3 5 6 7 10 12 15	53.3
2'F-ANA at 2 4 5 7 12 15	137
2'F-ANA at 1 3 4 6 7 10 14	52.1
2'F-ANA at 1 2 3 5 8 9 10	44.6
2'F-ANA at 1 3 5 6 8 9 10 11	48.7
2'F-ANA at 2 3 5 7 8 11 13 14	64.9
2'F-ANA at 5 6 8 9 10 13 14	164
2'F-ANA at 2 4 10 14	76.1
2'F-ANA at 2 4 5 6 7 8 9 12 14 15	51.8
2'F-ANA at 1 5 6 7 8 9 11 12 14 15	48.1
2'F-ANA at 2 5 6 8 9 10 11 12 14	47.9
2'F-ANA at 1 3 6 14 15	116
2'F-ANA at 1 2 4 7 9 10 14 15	52
2'F-ANA at 1 2 4 5 7 8 10 12 15	70.5

Series 4 — method: RNA Bind-n-Seq; form: RNA; medium: in vitro; tested at: 365 nM; reference: no-protein control; direction: higher = stronger binding
Target: RNA binding protein fox-1 homolog 2, RRM domain, GST-SBP tag (RBFOX2, Homo sapiens, UniProt O43251-10, residues 100-194)
Notes: natural RNA segment, single round, ends assumed
All sequences stand within: GGGAGUUCUACAGUCCGACGAUC … UGGAAUUCUCGGGUGCCAA
Residues (chain): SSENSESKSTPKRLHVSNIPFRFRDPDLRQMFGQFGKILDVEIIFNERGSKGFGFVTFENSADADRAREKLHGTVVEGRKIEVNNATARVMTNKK
Sequence	RBNS enrichment (R)
GUCUAUGAUUUUCUCUCCAGACUCAUUGAAAAAGCUUCAGUCAACAGAAAGCCUCAGCUACCUCAGCAUUUUGUUGAUGCUUAUUUAGAUGAGAUGGAUCAAGGUAAAAA	0.341
UCGUGGAUUCAGCCAUGCAUGGACUGGGGUGUUCCCUGGCCCAUGGUCACCUGUGCCCCUCGUGUCUCCUCACAUGGGUGUCUGUGGUUCUCUCCUGUGUAAAUGUCACG	0.273
GUAUAGCCCUGGCUGUCCUGGAACUCACUCUGUAGACCAGGCUGGCCUCAAACUCAAAAAUCCACCUGCCUCUGCCUCCCAAGUGCUGGGAUUAAAGGCGUGCGCCACCA	0.209
GCUUUGCCACCACCACCAAGCACAUCUGUGAUCCUGAAGGGCGGCCGUUAGUCAUUACUGCUGAGUCCUGGGUCACCAGCAGACACACUGGGCAUGGACCCCUCAAAGCA	4.93
UCUAUUUGAGUCUGGAAAUAACUAAUGUGUUUGAUAAUUAGUUUAGUUUGUGGCUUCAUGGAAACUCCCUGUAAACUAAAAGCUUCAGGGUUAUGUCUAUGUUCAUUCUA	0.752
GCAUGAUGAUAAUAAAAUCAAAAGCUGGAAUACAAUUAAAGCAUCAGAUUUACACUGGCACUGUGCCCUCUACCACUAUAUGCCAAAAACUGCUUCUGUAGUACCAUUUU	2.89
ACCCUCCACCUGCCCAGAGGCCAACUCUGUUCCCUUCUCCUUUCAUCCCAGAGGGGCCUCAUCAGCAAAGACAGAAACUGAUGUUCCAUGCAUGUCCCUGCUUCCAAAGC	7.7
UCCCCCUUUUUAAUUGAGAGGAUCGUUCGAAUGAGCCUCUGUGGCCUCUCCUUAGAGGCCUUCACAAGAAGCAUAGACACUGUCCCUGACGGUAAUUAGAAGAAGCAGAG	0.409

Excerpt of the above (series 1):
Variant	normalised enrichment score
PPVKRRNDLETDH [L7N]	-0.0108
PPYKRRLDLETDH [V3Y]	0.242
PPVKRSLDLETDH [R6S]	-0.415
PPVKRRLDLCTDH [E10C]	0.6
PPVKRRLDLETSH [D12S]	0.587
